Experimental data pooled from the literature.
Every numbered part comes from another study and shows a few of its results, in no order. Positions count from the first letter of the parent shown.

Set 1 — target: CCNE1, cyclin fold, Cln2 fusion (human); technique: yeast growth competition, sequencing; matrix: yeast; notes: strong parent motif; relative to: not given; reading: higher = stronger binding
Parent: SCAPER docking peptide (human); SNARRSLNFGGST
| Substitution | normalised enrichment score |
| --- | --- |
| L7S | 0.617 |
| S12R | -0.731 |
| L7K | 0.569 |
| L7F | 0.556 |
| G10I | 1.04 |
| T13G | 1.22 |
| R4I | 1.03 |
| G11D | 1.92 |
| S6E | 0.645 |
| A3G | 0.228 |
| S12E | 1.96 |
| S1T | 0.798 |
| G11E | 1.12 |
| T13W | 0.656 |
| T13Y | 0.655 |
| F9Y | -0.214 |
| S6R | 5.34 |
| L7N | 0.0468 |
| R5A | 0.269 |
| G10H | 0.651 |
| F9M | 1.04 |
| S6M | 3.08 |
| G11P | 0.527 |
| S1N | 1.24 |
| T13F | 1.17 |

Set 2 — technique: protein-binding microarray; form: double-stranded DNA, one strand shown; matrix: in vitro; concentration: 940 nM top; notes: 60-bp whole probe; added: salmon DNA 0.4 mg/ml; relative to: random background probes; reading: higher = stronger binding; all sequences stand within: GCCTAGCAC … GTCTTGATTCGCTTGACGCTGCTG
Target: Interferon regulatory factor 5, full length, phosphomimetic (IRF5, Homo sapiens, UniProt Q13568-2, residues 1-514, S451D/S453D/S456D/S462D)
| Strand | fitted relative affinity |
| --- | --- |
| TCATCTCCAGGGTTTCTCACTGTGCTA | 0.613 z-score |
| GACGATATCGGGACTGGAGCCGTGCTA | -0.312 z-score |
| TCAATCCTCTCACCTCAGACTGTGCTA | 1.01 z-score |
| TTAGATATCGGGTTTCGATAAGTGCTA | 4.37 z-score |
| GACGATTTCTGTATCGAGACGTGCTAG | 1.58 z-score |
| GACGGACTGGGGACTGGGGGCGTGCTA | 0.15 z-score |
| TTAGGTTTCGGTATCGCTTAGTGCTAG | 15.1 z-score |
| GACGTTTCCCTTTTCCTGACGTGCTAG | 1.9 z-score |
| GAGGAACTGAGACTGGAGACGTGCTAG | -0.684 z-score |
| GACGAACTGAGACAGGAGACGTGCTAG | -0.321 z-score |
| TTAGGTCTCGGTCTCGGTTGGTGCTAG | 5.35 z-score |
| GACGGACTGCTTCCCCTGACGTGCTAG | -0.381 z-score |
| TCAGCTTTCTCTTTCACACTGTGCTAG | 2.17 z-score |
| TTAGGTTCCCTCTTCCTTTAGTGCTAG | 0.501 z-score |
| TCAATTCTCATTTCCAAACTGTGCTAG | 2.21 z-score |
| GACGGTCTCCTTATCCTAACGTGCTAG | 0.56 z-score |
| GAAGGTATCCTTATCCTGACGTGCTAG | 0.178 z-score |
| GACGGGTTCGACACTGGGGACGTGCTA | -0.407 z-score |
| AGGAAGATCATTCTCACTGCGTGCTAG | 0.371 z-score |

Set 3 — technique: DHFR PCA, deep sequencing; matrix: yeast; added: (+)-ABA 710 µM; relative to: wild-type fitted maximum; reading: higher = stronger binding
Target: ABI1, truncated, D143A, DHFR fusion (Arabidopsis thaliana)
Notes: methotrexate growth selection, single substitutions
Parent: PYL1, truncated, DHFR fusion (Arabidopsis thaliana); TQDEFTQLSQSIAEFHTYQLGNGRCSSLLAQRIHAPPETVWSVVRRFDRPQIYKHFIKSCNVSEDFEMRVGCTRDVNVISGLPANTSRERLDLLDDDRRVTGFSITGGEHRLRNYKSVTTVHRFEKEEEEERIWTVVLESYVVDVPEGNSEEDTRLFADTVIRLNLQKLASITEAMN; partner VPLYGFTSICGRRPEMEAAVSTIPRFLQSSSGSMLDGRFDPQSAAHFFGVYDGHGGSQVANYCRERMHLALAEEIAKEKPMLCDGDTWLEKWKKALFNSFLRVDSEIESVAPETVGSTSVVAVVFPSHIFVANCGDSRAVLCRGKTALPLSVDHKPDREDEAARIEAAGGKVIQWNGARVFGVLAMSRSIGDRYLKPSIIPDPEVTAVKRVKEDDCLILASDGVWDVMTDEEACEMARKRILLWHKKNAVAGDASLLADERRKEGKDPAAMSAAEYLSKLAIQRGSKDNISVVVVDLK
| Substitution | relative binding score |
| --- | --- |
| D144W | 52.8% |
| S150A | 92.7% |
| G21H | 105% |
| I105Q | -10.7% |
| L28D | 17.3% |
| D95Y | 89.1% |
| R90D | 39.6% |
| N149C | 79.9% |
| T106N | 98.1% |
| D65K | 105% |
| T173K | 33.7% |
| V78C | 104% |
| E152C | 98.2% |
| V43H | 80.1% |
| P50N | 7.13% |
| S11E | 112% |
| R49M | 99.6% |
| S59A | 101% |
| G102K | 88.5% |
| T119G | 1.86% |
| E4T | 104% |

Set 4 — technique: RNA Bind-n-Seq; form: RNA; matrix: in vitro; concentration: 365 nM; relative to: no-protein control; reading: higher = stronger binding
Target: RNA binding protein fox-1 homolog 2, RRM domain, GST-SBP tag (RBFOX2, Homo sapiens, UniProt O43251-10, residues 100-194)
Notes: natural RNA segment, single round, ends assumed
All sequences stand within: GGGAGUUCUACAGUCCGACGAUC … UGGAAUUCUCGGGUGCCAA
Target sequence (chain): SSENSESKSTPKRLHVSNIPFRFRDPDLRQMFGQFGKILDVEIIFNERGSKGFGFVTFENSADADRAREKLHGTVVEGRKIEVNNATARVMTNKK
| Strand | RBNS enrichment (R) |
| --- | --- |
| CAGUUUACCUUCAAGUAAUAUUAUCUUUAUUUUUAGGCUAAGCACGUUUGAUUAUUUUGUCUGUCUCCUAUAUAGAUCUGUUUUGUCUAGUGCUAUGAAUGUAACUUAAA | 2.77 |
| AUGUGAAGUGAAGUCACGGAACAAGAUGCUGCUGUUGGGACCUUGAGACCAAAAUUUCAGAGCCCUUGAGGUGCAGAGAGCAGAGCCGUCCAAUGAUUUCAACCCUGCAG | 0.347 |
| UAGUUUUAUAAAGACAAACCGAUUGUAGCCAAAUGACACCAUAUUUAAUAAAAUUUAGUCUGAAGUGUGUACUGUGUUUUGUGUUGCCCGAUAUUAAAACCAAACUUUUG | 0.991 |
| UCAUUUAUUUGCUUAAAUGGAAAGUGUGGGAGCCACUACCCUCUCUUUUGAUCUGCCAAGGAUUUCCUCUCAGAGCUGUUGCACAGACAGAGAUUGUACUUGGUAAGAUA | 0.254 |
| AUUUAAUGAAGUAUUGCUAACUGAAGCCAGUUUGACUUGUGAGAGAGGUUAGACUGACAGAAGGUGUGCAGCCUGAUUUACAACCAAACCCUGAACCCUUUUGAAGAACA | 0.714 |
| GUAGAACCAGUGAGGAGAUGCGGCCAAAGAUUCUUUAUAUCUGAACCAAGAUGUAAAACAAGAAAUGCUUUGAGGCUUUCUAAGCGAUCCUCCUGUCUAAUUUGCACCUU | 0.277 |
| CCUAUAGUUCCAUCAAAUUCUUUCUUUCCCUUCUUGACAUUGUCCCCCAAACCCUCAUUUUGCAGAAACACUAGGUCUGUGGAGUAGGUUGUGAUUCUGGGGUCUCUUCA | 0.763 |
| CAUAGCUCUUAAACCGUGUGGGUGAAUGGUGUCUAAUUGCACCCCUUUGUGUUCUCACUUGCAUAAAGCUAUUCAAGGUACUUUUUAAAAGGCAAGGGUUGAUCCCCGCA | 0.84 |

Some of these lines once more (set 4):
| Strand | RBNS enrichment (R) |
| --- | --- |
| CCUAUAGUUCCAUCAAAUUCUUUCUUUCCCUUCUUGACAUUGUCCCCCAAACCCUCAUUUUGCAGAAACACUAGGUCUGUGGAGUAGGUUGUGAUUCUGGGGUCUCUUCA | 0.763 |
| CAUAGCUCUUAAACCGUGUGGGUGAAUGGUGUCUAAUUGCACCCCUUUGUGUUCUCACUUGCAUAAAGCUAUUCAAGGUACUUUUUAAAAGGCAAGGGUUGAUCCCCGCA | 0.84 |
| CAGUUUACCUUCAAGUAAUAUUAUCUUUAUUUUUAGGCUAAGCACGUUUGAUUAUUUUGUCUGUCUCCUAUAUAGAUCUGUUUUGUCUAGUGCUAUGAAUGUAACUUAAA | 2.77 |
| UCAUUUAUUUGCUUAAAUGGAAAGUGUGGGAGCCACUACCCUCUCUUUUGAUCUGCCAAGGAUUUCCUCUCAGAGCUGUUGCACAGACAGAGAUUGUACUUGGUAAGAUA | 0.254 |
| AUUUAAUGAAGUAUUGCUAACUGAAGCCAGUUUGACUUGUGAGAGAGGUUAGACUGACAGAAGGUGUGCAGCCUGAUUUACAACCAAACCCUGAACCCUUUUGAAGAACA | 0.714 |
